Measured values from different studies.
Parts stem from different laboratories: compare values within a part only. Values joined by “and” are separate records of one study, mostly repeats; a detail may differ.
Chain of UniProt O15075 (whole entry, looked up): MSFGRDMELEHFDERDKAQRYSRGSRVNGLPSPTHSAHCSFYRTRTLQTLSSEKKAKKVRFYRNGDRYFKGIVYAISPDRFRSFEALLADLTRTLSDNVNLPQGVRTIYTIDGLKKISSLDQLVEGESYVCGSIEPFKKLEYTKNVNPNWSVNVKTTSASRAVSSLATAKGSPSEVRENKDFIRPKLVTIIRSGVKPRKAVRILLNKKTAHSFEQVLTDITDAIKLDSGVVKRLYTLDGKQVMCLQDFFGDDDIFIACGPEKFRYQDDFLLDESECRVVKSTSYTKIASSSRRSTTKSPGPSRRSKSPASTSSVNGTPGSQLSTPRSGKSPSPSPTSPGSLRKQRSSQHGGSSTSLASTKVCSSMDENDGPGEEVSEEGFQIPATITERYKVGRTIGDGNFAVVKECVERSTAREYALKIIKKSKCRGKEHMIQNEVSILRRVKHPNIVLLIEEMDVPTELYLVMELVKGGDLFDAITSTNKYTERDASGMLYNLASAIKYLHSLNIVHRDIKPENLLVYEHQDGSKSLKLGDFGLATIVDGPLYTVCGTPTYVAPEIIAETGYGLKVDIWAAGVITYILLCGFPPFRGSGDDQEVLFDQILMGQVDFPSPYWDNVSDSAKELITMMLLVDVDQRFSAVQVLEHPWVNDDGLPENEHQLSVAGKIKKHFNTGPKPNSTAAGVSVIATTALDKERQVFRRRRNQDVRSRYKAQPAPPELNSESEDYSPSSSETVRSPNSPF
Chain of UniProt P42336 (whole entry, unmodified, looked up): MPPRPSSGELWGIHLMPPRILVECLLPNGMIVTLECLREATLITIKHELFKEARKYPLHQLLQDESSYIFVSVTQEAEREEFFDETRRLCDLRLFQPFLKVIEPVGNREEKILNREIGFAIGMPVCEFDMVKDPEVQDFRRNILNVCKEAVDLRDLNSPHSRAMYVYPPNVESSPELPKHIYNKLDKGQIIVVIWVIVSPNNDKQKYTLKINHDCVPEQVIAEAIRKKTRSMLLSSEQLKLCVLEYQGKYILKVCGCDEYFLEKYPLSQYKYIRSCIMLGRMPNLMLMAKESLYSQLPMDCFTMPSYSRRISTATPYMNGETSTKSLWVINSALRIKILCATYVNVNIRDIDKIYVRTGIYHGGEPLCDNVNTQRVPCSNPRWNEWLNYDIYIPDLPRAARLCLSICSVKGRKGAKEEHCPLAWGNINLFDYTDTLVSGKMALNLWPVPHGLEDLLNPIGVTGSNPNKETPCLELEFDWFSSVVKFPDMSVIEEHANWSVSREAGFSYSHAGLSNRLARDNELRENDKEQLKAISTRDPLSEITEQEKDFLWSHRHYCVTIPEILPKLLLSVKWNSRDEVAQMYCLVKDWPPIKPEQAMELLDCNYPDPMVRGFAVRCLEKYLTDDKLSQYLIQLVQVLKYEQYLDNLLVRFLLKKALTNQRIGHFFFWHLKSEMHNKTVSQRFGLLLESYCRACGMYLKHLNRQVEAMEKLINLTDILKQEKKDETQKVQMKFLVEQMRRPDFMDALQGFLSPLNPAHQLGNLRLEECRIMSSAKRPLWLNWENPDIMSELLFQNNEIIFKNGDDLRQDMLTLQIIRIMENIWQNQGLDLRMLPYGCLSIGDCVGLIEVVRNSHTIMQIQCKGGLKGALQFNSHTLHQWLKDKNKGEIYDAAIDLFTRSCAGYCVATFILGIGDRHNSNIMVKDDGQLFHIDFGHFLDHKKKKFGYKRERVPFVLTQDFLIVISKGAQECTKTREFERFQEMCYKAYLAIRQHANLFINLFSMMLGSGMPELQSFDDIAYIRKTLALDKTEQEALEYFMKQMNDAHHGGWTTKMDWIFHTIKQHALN
Chain of UniProt O00444 (whole entry, looked up): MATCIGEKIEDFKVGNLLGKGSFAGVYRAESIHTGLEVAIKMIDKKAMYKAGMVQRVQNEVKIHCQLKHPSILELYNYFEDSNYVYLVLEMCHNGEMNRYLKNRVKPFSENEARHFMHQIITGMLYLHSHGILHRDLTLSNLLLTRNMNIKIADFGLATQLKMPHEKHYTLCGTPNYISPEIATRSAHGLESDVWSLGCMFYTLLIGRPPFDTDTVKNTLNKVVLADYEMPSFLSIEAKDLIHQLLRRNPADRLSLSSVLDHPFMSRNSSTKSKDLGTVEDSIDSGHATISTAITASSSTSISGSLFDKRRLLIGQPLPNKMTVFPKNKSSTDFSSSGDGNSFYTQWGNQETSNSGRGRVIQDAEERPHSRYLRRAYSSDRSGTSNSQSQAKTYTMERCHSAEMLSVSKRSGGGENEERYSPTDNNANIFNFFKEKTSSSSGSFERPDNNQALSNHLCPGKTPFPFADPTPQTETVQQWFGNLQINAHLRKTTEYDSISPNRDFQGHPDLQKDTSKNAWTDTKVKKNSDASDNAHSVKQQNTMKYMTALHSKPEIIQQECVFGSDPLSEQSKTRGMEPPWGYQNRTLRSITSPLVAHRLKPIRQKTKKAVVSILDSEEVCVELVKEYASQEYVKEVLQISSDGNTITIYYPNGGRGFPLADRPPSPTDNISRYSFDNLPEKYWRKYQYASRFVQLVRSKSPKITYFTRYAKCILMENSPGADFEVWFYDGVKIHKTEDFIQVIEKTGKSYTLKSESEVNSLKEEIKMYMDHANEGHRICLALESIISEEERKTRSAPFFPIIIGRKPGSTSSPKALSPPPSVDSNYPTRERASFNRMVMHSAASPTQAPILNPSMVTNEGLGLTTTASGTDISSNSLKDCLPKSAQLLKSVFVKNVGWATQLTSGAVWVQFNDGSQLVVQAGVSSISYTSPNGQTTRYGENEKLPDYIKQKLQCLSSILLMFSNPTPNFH
Chain of UniProt P06213 (whole entry, looked up): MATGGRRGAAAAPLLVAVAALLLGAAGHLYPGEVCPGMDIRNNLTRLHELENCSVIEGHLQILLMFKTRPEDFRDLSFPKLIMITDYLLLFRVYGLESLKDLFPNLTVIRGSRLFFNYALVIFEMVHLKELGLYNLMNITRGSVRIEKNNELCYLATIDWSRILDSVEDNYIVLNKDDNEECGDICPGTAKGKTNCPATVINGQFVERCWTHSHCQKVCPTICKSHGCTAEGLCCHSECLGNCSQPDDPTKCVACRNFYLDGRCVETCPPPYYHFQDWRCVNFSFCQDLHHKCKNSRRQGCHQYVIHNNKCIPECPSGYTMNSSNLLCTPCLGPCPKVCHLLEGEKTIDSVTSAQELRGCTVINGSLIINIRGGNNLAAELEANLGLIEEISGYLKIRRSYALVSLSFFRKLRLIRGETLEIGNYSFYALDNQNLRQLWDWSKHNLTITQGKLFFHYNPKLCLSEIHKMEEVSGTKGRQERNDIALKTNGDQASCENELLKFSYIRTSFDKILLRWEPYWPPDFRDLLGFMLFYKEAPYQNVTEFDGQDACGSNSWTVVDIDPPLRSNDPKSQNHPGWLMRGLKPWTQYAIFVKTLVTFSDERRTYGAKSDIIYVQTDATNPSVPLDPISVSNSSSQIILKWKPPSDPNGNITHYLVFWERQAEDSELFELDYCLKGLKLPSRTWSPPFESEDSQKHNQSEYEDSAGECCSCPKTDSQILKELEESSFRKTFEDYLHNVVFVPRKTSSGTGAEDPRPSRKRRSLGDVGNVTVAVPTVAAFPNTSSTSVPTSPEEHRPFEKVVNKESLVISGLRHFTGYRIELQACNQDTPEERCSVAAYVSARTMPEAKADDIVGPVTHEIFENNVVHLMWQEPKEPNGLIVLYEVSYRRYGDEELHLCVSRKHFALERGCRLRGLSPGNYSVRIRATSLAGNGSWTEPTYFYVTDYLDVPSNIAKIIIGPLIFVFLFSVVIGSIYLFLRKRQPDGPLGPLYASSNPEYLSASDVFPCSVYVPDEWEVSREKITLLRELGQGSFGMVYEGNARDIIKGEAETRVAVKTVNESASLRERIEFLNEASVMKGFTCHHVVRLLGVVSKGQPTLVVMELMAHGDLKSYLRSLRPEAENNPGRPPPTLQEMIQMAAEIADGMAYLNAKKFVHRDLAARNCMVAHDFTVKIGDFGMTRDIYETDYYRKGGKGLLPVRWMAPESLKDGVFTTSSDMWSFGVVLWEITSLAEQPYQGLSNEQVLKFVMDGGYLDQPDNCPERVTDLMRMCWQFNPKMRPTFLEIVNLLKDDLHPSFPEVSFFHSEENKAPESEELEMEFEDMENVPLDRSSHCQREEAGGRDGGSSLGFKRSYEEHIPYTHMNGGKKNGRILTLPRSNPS

Block 1
SMILES: COc1ccc(-c2c(Nc3ccccn3)[nH]c3c(C4=CCCCC4)c(-c4ccccc4)nn3c2=O)cc1
Host: human
Medium: plasma
Route: oral
| dose | time | relative to | accumulation ratio |
| --- | --- | --- | --- |
| 400 mg once daily | cycle 1 | steady state over single dose | 1.2 and 1.92 and 1.66 and 1.93 |
| 200 mg twice daily | – | steady-state AUC over single-dose AUC | 27.9 and 19.4 and 11.5 |
| 50 mg once daily | cycle 1 | steady state over single dose | 3.13 |

Block 2
Compound: C[C@@]1(Cc2ccc(C#N)cc2)C(=O)N(c2cc(Cl)cc(Cl)c2)c2ncc(C(=O)NC3(c4nc(C5CCC5)no4)CC3)n21
Effect on: cell-free assay
Method: competition with immobilised ligand
Concentration: 1 µM
| target | remaining binding |
| --- | --- |
| Ephrin type-A receptor 4 (EPHA4, Homo sapiens, UniProt P54764) | 100% |
| eIF-2-alpha kinase GCN2, C-terminal kinase domain (EIF2AK4, Homo sapiens, UniProt Q9P2K8, S808G) | 100% |
| Eukaryotic translation initiation factor 2-alpha kinase 1 (EIF2AK1, Homo sapiens, UniProt Q9BQI3) | 100% |
| Phosphatidylinositol 4,5-bisphosphate 3-kinase catalytic subunit alpha isoform (PIK3CA, Homo sapiens, UniProt P42336, I800L) | 88% |
| Tyrosine-protein kinase ZAP-70 (ZAP70, Homo sapiens, UniProt P43403) | 90% |
| Serine/threonine-protein kinase DCLK1 (DCLK1, Homo sapiens, UniProt O15075) | 100% |
| Insulin receptor (INSR, Homo sapiens, UniProt P06213) | 89% |
| Serine/threonine-protein kinase PLK4 (PLK4, Homo sapiens, UniProt O00444) | 90% |

Block 3
Target: Serine/threonine-protein kinase PAK 6 (PAK6, Homo sapiens, UniProt Q9NQU5)
Chain of UniProt Q9NQU5 (whole entry, looked up): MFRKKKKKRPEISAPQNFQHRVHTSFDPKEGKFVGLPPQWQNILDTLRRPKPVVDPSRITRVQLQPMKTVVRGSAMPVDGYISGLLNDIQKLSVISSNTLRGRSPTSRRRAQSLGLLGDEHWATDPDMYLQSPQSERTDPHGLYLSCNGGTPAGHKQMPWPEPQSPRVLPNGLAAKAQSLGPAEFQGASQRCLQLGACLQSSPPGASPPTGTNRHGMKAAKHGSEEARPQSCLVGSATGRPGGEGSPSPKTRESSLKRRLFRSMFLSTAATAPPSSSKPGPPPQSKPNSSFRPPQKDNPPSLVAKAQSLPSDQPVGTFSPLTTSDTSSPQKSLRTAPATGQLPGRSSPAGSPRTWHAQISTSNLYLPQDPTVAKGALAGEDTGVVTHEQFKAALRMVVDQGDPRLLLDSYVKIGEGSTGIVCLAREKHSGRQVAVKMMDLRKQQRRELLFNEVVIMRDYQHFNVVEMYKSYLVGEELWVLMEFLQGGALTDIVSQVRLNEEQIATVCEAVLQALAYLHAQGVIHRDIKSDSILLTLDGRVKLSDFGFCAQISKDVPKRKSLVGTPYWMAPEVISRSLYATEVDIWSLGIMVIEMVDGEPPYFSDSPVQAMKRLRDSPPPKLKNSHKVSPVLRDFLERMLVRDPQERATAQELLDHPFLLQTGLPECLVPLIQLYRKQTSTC
Effect on: enzyme activity
Action: inhibitor
Concentration: 0.5 µM
Relative to: control
| Structure (SMILES) | remaining activity |
| --- | --- |
| CCN(CC)C(=O)c1ccc(Nc2nc(OCC3CCCCC3)c3[nH]cnc3n2)cc1 | 95.5% |
| O=C(NC(NC(=S)Nc1ccc(F)c([N+](=O)[O-])c1)C(Cl)(Cl)Cl)C(c1ccccc1)c1ccccc1 (centres unmarked) | 101% |
| O=C1C(Cl)=C(N2C(=O)CCC2=O)C(=O)c2ccccc21 | 89.6% |
| COc1cc2ncnc(Nc3ccc(O)c(Br)c3)c2cc1OC | 92.8% |
| Ic1cccc(CSc2nnc(-c3ccncc3)o2)c1 | 74% |
| c1ccc(-c2[nH]ncc2-c2ccnc3ccccc23)nc1 | 106% |
| N#C/C(=C\c1ccc(O)c(O)c1)C(=O)NCc1ccccc1 | 99.4% |
| Cc1cn(-c2cc(NC(=O)c3ccc(C)c(Nc4nccc(-c5cccnc5)n4)c3)cc(C(F)(F)F)c2)cn1 | 107% |
| COc1cc2ncnc(Nc3cccc(Cl)c3)c2cc1OC | 81.6% |
| CCN(CC)CCNC(=O)c1c(C)[nH]c(/C=C2\C(=O)Nc3ccc(F)cc32)c1C | 107% |
| Nc1cccc(-c2cc3c(Oc4cccc(O)c4)ncnc3[nH]2)c1 | 109% |
| Cc1cc2ncc(-c3ccccc3)nc2cc1C | 97.4% |
| CN([C@@H](Cc1ccc(OS(=O)(=O)c2cccc3cnccc23)cc1)C(=O)N1CCN(c2ccccc2)CC1)S(=O)(=O)c1cccc2cnccc12 | 102% |

Single results of other studies
| SMILES | tested on | assay | system | setting | scale | endpoint | value |
| --- | --- | --- | --- | --- | --- | --- | --- |
| COCc1cc(C(=O)Nc2cc([C@H]3CC[C@@H](OC(=O)NC(C)C)C3)[nH]n2)n(C)n1 | NCI-H1048 | Vi-Cell | – | 250 nM, 6 d | relative to: DMSO | cell count | 0.475 and 0.455 and 0.391 |
| CCC[C@@H]1NC(=O)CSC[C@@H](C(=O)OCC)N(C)C(=O)[C@H](CC(C)C)NC(=O)[C@H](C)N(C)C(=O)[C@H](CC(C)C)NC(=O)[C@H](C)N(C)C(=O)[C@@H]2CCCN2C(=O)[C@H](CC(C)C)NC(=O)CN(C)C1=O | – | – | hydrocarbon/water | – | – | logD | 0.381 |
